Results collected from several papers.
Protocols differ between the studies behind these lines.
HLA class I histocompatibility antigen, B alpha chain allele B*27:05: HLA class I histocompatibility antigen, B alpha chain, allele B*27:05 (Homo sapiens, UniProt P01889)
HLA class I histocompatibility antigen, B alpha chain: HLA class I histocompatibility antigen, B alpha chain (Homo sapiens, UniProt P01889)
HLA class I histocompatibility antigen, B alpha chain allele B*40:01: HLA class I histocompatibility antigen, B alpha chain, allele B*40:01 (Homo sapiens, UniProt P01889)
HLA class I histocompatibility antigen, B alpha chain allele B*18:01: HLA class I histocompatibility antigen, B alpha chain, allele B*18:01 (Homo sapiens, UniProt P01889)

| Compound | target | test | conditions | IC50 [µM] |
| --- | --- | --- | --- | --- |
| CC[C@H](C)[C@H](NC(=O)[C@H](CCCNC(=N)N)NC(=O)CNC(=O)[C@H](CC(C)C)NC(=O)[C@@H](NC(=O)[C@H](CC(C)C)NC(=O)[C@H](CC(C)C)NC(=O)[C@H](CCCNC(=N)N)NC(=O)[C@@H](N)CCCNC(=N)N)[C@@H](C)CC)C(=O)O | HLA class I histocompatibility antigen, B alpha chain allele B*27:05 | peptide binding, fluorescence anisotropy | 18 h, 4 °C | 0.311 |
| CC[C@H](C)[C@H](NC(=O)[C@H](CCC(N)=O)NC(=O)[C@@H]1CCCN1C(=O)[C@H](Cc1ccc(O)cc1)NC(=O)[C@@H]1CCCN1C(=O)[C@@H](N)CC(C)C)C(=O)N[C@@H](CC(C)C)C(=O)N[C@@H](CC(C)C)C(=O)N[C@@H](CC(C)C)C(=O)O | HLA class I histocompatibility antigen, B alpha chain | binding, competitor | – | 0.144 |
| CSCC[C@H](NC(=O)[C@H](CO)NC(=O)[C@H](CC(C)C)NC(=O)[C@@H](NC(=O)[C@H](Cc1c[nH]cn1)NC(=O)[C@H](CCCCN)NC(=O)[C@H](Cc1ccccc1)NC(=O)[C@H](CCC(N)=O)NC(=O)[C@@H](N)CCCCN)[C@@H](C)O)C(=O)O | HLA class I histocompatibility antigen, B alpha chain allele B*40:01 | binding | – | 5.76 |
| CC[C@H](C)[C@H](NC(=O)[C@@H](N)CCC(=O)O)C(=O)N[C@@H](CCCCN)C(=O)N[C@@H](CCC(=O)O)C(=O)N[C@@H](CO)C(=O)N[C@H](C(=O)N[C@@H](CCC(N)=O)C(=O)N[C@H](C(=O)N[C@@H](Cc1ccccc1)C(=O)O)[C@@H](C)O)C(C)C | HLA class I histocompatibility antigen, B alpha chain | peptide-MHC binding, radioligand competition binding | – | > 70 |
| CC[C@H](C)[C@H](NC(=O)[C@H](CCCCN)NC(=O)[C@H](CC(C)C)NC(=O)[C@H](Cc1ccc(O)cc1)NC(=O)[C@H](CC(C)C)NC(=O)[C@H](CO)NC(=O)[C@H](CCC(N)=O)NC(=O)[C@H](CCCNC(=N)N)NC(=O)[C@@H](N)Cc1ccccc1)C(=O)O | HLA class I histocompatibility antigen, B alpha chain allele B*27:05 | peptide binding, fluorescence anisotropy | 18 h, 4 °C | 0.007 |
| CC[C@H](C)[C@H](NC(=O)[C@H](CCCNC(=N)N)NC(=O)CNC(=O)[C@@H](NC(=O)[C@@H]1CCCN1C(=O)[C@@H](N)CCSC)[C@@H](C)CC)C(=O)N[C@@H](C)C(=O)N[C@@H](CCC(=O)O)C(=O)N[C@@H](CS)C(=O)N[C@H](C(=O)N[C@@H](CC(C)C)C(=O)O)[C@@H](C)CC | HLA class I histocompatibility antigen, B alpha chain | binding, competitor, radioligand competition | two days, room temperature, HLA-B*07:02 | 5.43 |
| CC(C)C[C@H](NC(=O)[C@H](Cc1c[nH]cn1)NC(=O)[C@H](CCCNC(=N)N)NC(=O)[C@@H](N)Cc1ccc(O)cc1)C(=O)N[C@@H](Cc1ccccc1)C(=O)N[C@@H](CCCCN)C(=O)N[C@H](C(=O)N[C@@H](Cc1ccccc1)C(=O)N[C@@H](CCCNC(=N)N)C(=O)O)C(C)C | HLA class I histocompatibility antigen, B alpha chain allele B*27:05 | peptide binding, fluorescence anisotropy | 18 h, 4 °C | 0.07 |
| CC[C@H](C)[C@H](NC(=O)[C@@H](NC(=O)[C@H](Cc1c[nH]c2ccccc12)NC(=O)[C@H](CC(=O)O)NC(=O)[C@@H](NC(=O)[C@H](CCCNC(=N)N)NC(=O)[C@@H](N)CCCCN)C(C)C)[C@@H](C)O)C(=O)N[C@@H](CCC(=O)O)C(=O)N[C@@H](Cc1ccc(O)cc1)C(=O)O | HLA class I histocompatibility antigen, B alpha chain allele B*18:01 | peptide-MHC binding, radioligand competition binding | – | > 70 |
| CSCC[C@H](NC(=O)[C@H](Cc1c[nH]cn1)NC(=O)[C@H](CC(=O)O)NC(=O)[C@H](Cc1ccc(O)cc1)NC(=O)[C@H](CCC(N)=O)NC(=O)[C@@H](N)CCCCN)C(=O)N[C@@H](Cc1ccc(O)cc1)C(=O)N[C@@H](CCC(N)=O)C(=O)N[C@@H](CC(C)C)C(=O)O | HLA class I histocompatibility antigen, B alpha chain allele B*40:01 | binding | – | 1.27 |
| CC[C@H](C)[C@H](NC(=O)[C@@H](NC(=O)[C@@H](NC(=O)[C@H](CC(N)=O)NC(=O)[C@@H](NC(=O)[C@H](C)NC(=O)[C@@H](N)CC(N)=O)[C@@H](C)O)C(C)C)C(C)C)C(=O)N[C@@H](CCCCN)C(=O)N[C@H](C(=O)O)C(C)C | HLA class I histocompatibility antigen, B alpha chain | peptide-MHC binding, radioligand competition binding | – | > 70 |
| CC(C)C[C@H](NC(=O)[C@H](C)NC(=O)[C@H](Cc1c[nH]c2ccccc12)NC(=O)[C@H](CCCNC(=N)N)NC(=O)CN)C(=O)N[C@@H](Cc1c[nH]cn1)C(=O)N[C@@H](CO)C(=O)N[C@@H](C)C(=O)N[C@@H](Cc1ccccc1)C(=O)O | HLA class I histocompatibility antigen, B alpha chain allele B*27:05 | peptide binding, fluorescence anisotropy | 18 h, 4 °C | 0.068 |
| CSCC[C@H](NC(=O)[C@H](CCC(=O)O)NC(=O)[C@H](CCC(=O)O)NC(=O)[C@@H](N)CCCNC(=N)N)C(=O)N[C@@H](CCC(=O)O)C(=O)N[C@H](C(=O)N[C@@H](Cc1c[nH]cn1)C(=O)N[C@@H](CCC(=O)O)C(=O)N[C@@H](CC(C)C)C(=O)O)C(C)C | HLA class I histocompatibility antigen, B alpha chain | binding, competitor, radioligand competition | two days, room temperature, HLA-B*07:02 | > 40 |
| CC(C)C[C@H](NC(=O)[C@H](CCC(N)=O)NC(=O)[C@H](CC(=O)O)NC(=O)[C@H](C)NC(=O)[C@@H](N)Cc1c[nH]cn1)C(=O)N[C@H](C(=O)N1CCC[C@H]1C(=O)N[C@H](C(=O)N[C@@H](Cc1c[nH]c2ccccc12)C(=O)O)[C@@H](C)O)[C@@H](C)O | HLA class I histocompatibility antigen, B alpha chain allele B*18:01 | peptide-MHC binding, radioligand competition binding | – | 3.35 |
| CSCC[C@H](NC(=O)[C@H](CCCNC(=N)N)NC(=O)[C@@H](N)Cc1ccccc1)C(=O)N[C@@H](Cc1ccccc1)C(=O)N[C@@H](CC(C)C)C(=O)N[C@H](C(=O)N[C@@H](CCC(N)=O)C(=O)NCC(=O)N[C@@H](Cc1ccccc1)C(=O)O)[C@@H](C)O | HLA class I histocompatibility antigen, B alpha chain allele B*27:05 | peptide binding, fluorescence anisotropy | 18 h, 4 °C | 0.002 |
| CC[C@H](C)[C@H](NC(=O)[C@@H](NC(=O)[C@@H](NC(=O)[C@H](CC(=O)O)NC(=O)[C@H](CC(=O)O)NC(=O)CNC(=O)[C@@H](N)Cc1ccccc1)[C@@H](C)O)C(C)C)C(=O)N[C@@H](CCC(=O)O)C(=O)N[C@H](C(=O)O)C(C)C | HLA class I histocompatibility antigen, B alpha chain allele B*18:01 | peptide-MHC binding, radioligand competition binding | – | > 70 |
| CC[C@H](C)[C@H](NC(=O)[C@H](CC(=O)O)NC(=O)[C@H](Cc1ccc(O)cc1)NC(=O)[C@H](CCC(N)=O)NC(=O)[C@@H](N)Cc1ccccc1)C(=O)N1CCC[C@H]1C(=O)N[C@@H](Cc1c[nH]cn1)C(=O)N[C@@H](CCC(=O)O)C(=O)N[C@@H](CCSC)C(=O)O | HLA class I histocompatibility antigen, B alpha chain allele B*40:01 | binding | – | 11.1 |
| CC(C)C[C@H](NC(=O)[C@H](CCCNC(=N)N)NC(=O)[C@H](CC(C)C)NC(=O)[C@H](CC(N)=O)NC(=O)[C@@H](NC(=O)[C@H](C)NC(=O)[C@H](Cc1ccccc1)NC(=O)[C@H](CCCNC(=N)N)NC(=O)[C@H](C)N)C(C)C)C(=O)O | HLA class I histocompatibility antigen, B alpha chain allele B*27:05 | peptide binding, fluorescence anisotropy | 18 h, 4 °C | 0.008 |
| CC[C@H](C)[C@H](NC(=O)[C@H](CCCCN)NC(=O)[C@H](Cc1ccccc1)NC(=O)[C@H](Cc1ccc(O)cc1)NC(=O)CNC(=O)[C@H](CC(=O)O)NC(=O)[C@@H](NC(=O)[C@H](CC(N)=O)NC(=O)[C@@H](N)CCCCN)[C@@H](C)CC)C(=O)N[C@@H](Cc1ccc(O)cc1)C(=O)O | HLA class I histocompatibility antigen, B alpha chain allele B*18:01 | peptide-MHC binding, radioligand competition binding | – | > 70 |

Repeated from above:
| Compound | target | test | conditions | IC50 [µM] |
| --- | --- | --- | --- | --- |
| CC[C@H](C)[C@H](NC(=O)[C@@H](NC(=O)[C@@H](NC(=O)[C@H](CC(=O)O)NC(=O)[C@H](CC(=O)O)NC(=O)CNC(=O)[C@@H](N)Cc1ccccc1)[C@@H](C)O)C(C)C)C(=O)N[C@@H](CCC(=O)O)C(=O)N[C@H](C(=O)O)C(C)C | HLA class I histocompatibility antigen, B alpha chain allele B*18:01 | peptide-MHC binding, radioligand competition binding | – | > 70 |
| CC(C)C[C@H](NC(=O)[C@H](CCC(N)=O)NC(=O)[C@H](CC(=O)O)NC(=O)[C@H](C)NC(=O)[C@@H](N)Cc1c[nH]cn1)C(=O)N[C@H](C(=O)N1CCC[C@H]1C(=O)N[C@H](C(=O)N[C@@H](Cc1c[nH]c2ccccc12)C(=O)O)[C@@H](C)O)[C@@H](C)O | HLA class I histocompatibility antigen, B alpha chain allele B*18:01 | peptide-MHC binding, radioligand competition binding | – | 3.35 |
